Assay results from different studies.
Every numbered part comes from another study and shows a few of its results, in no order. Positions count from the first letter of the parent shown.

Study 1
Target: RNA binding protein fox-1 homolog 2, RRM domain, GST-SBP tag (RBFOX2, Homo sapiens, UniProt O43251-10, residues 100-194)
Technique: RNA Bind-n-Seq
Molecule type: RNA
Matrix: in vitro
Concentration: 365 nM
Setting: natural RNA segment, single round, ends assumed
Baseline: no-protein control
Direction: higher = stronger binding
Residues (chain): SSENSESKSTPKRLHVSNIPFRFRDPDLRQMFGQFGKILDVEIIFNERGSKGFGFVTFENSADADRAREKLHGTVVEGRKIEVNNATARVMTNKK
Oligonucleotide	RBNS enrichment (R)
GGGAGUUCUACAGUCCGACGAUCCCAAGCCUGAGGACAGAGCCGCAUCAAGUCAUCAUCAGCAAGUCAGCCAGCCUGUUUGGUCUGCUUCCCCUUUGCUGGACACCUGCGUCCCUCUCUUGUUUCCUCUCCUCUGGAAUUCUCGGGUGCCAA	0.503
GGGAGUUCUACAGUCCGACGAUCGAUUGACUUUAGUUGACUGCACUAUAUAAUAUAGAACUAUGAAUAUGUAGAAUAACAUGAAAAAUUGGAGGUGCUGGUGGUAUGGCUGACCCUGUUUCAGAAGCAGGAUAUGGAAUUCUCGGGUGCCAA	1.15
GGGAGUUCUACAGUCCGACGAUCAGAACUAGUAGACCCUUUUUCCCAGGCACUGACCCCCCACCUUUGUCUGUGUUGUGCCCAAGUGCCUGCGCCACCCCCACCCUCCUGCUGCGCUGACCGCUGCAUGGUGUUGGAAUUCUCGGGUGCCAA	0.537
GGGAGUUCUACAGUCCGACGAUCCGACCCCCACCCUAGGGAAUGCAGAGCCUCUCCGCAUGUGUGCGCGUGGCCGUGUCUGUGUAUUUCUACGUGUGUCGCUCUUCAGAAGCAACCUAGUUCCUGGGGCAGCUUGGAAUUCUCGGGUGCCAA	0.55
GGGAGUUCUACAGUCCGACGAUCAUUGUGCCCUUGGAAUUUAAUACAAGUGCCUAACCCACAGUAGGGUUGAUUGAUUCACUGAUUAGUUUUACUGCCAUGUGCCUAUAACUAUAGGUUAUUCUCUUUCCUUUUGGAAUUCUCGGGUGCCAA	0.292
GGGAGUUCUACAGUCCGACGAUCUUCAUGGUUGAAACUCAACUUAGGGAAAGGGUUCCAAUGUAUUAAGCAAUGGGCUGCUUCUCCCCAAUCCUCCCUAACAAUUCGUUGUGUGGACUUCUCAUCUAAAAGGUUGGAAUUCUCGGGUGCCAA	0.274
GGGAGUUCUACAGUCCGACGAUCGAACUCAGAAGGAUGGCAUUUUUUGCAAGUUAAAGAAAAUCAGGAUCUGAGUUAUUUUGCUAAACUUGGGGGAGGAGGAACAAAUAAAUGGAGUCUUUAUUGUGUAUCAUUGGAAUUCUCGGGUGCCAA	1.95
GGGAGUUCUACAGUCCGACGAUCGAGGGAAGCACCUAACCUCUGCUGCUUUGCAAGGAAGGCUCCUUGCAAUCUGGAGAGAGACUCGGUAGGAGUGUGUUGUCUUCUACUCGCAGUGCAUUGAAGGACCCAAGUGGAAUUCUCGGGUGCCAA	0.903
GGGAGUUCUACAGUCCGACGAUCUUGCGUUAUUGGCCUAGAUUUUGCUGCAGAUUAAAUCCUUUGAGGAUUCUCUUCUCUUUUACCAUUUUUCUGCGUGCUCUCACUCUCUCUUUCUCUCUCUAGCUUUUUAAUGGAAUUCUCGGGUGCCAA	0.732
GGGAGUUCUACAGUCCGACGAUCCACACUGCAGCUGAGGCCCCAGGUGGCAGCCAUGGAUCAUGUAGACUUCCAGAUGGUCUCCCGAACCGCCUGGCUCUGCCGGCGCCCUCCUCACGUCAGGAGCAAGCAGCUGGAAUUCUCGGGUGCCAA	0.217
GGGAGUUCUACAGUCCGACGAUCGUACAGGUACUUUGUCUAAGAAACAUUGGAAGCAGGUUAAAUGUUUUGUAAACUUUGAAAUAUAUGGUCUAAUGUUUAAGCAGAAUUGGAAAAGACUAAGAUCGGUUAACUGGAAUUCUCGGGUGCCAA	1.05
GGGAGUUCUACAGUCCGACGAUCUUGUUCACAAGUAAUCUGUUGACAGUGCCAAUAAAUGAUAAAAAAAAAAUUAACAUGUCACAAUGUAACGGAUGACCAUAUGCACAAUUCCAUGAAUUAAAUCUGUUUCCUGGAAUUCUCGGGUGCCAA	0.564

Study 2
Target: Histone acetyltransferase KAT6A, winged helix 2, GST fusion (KAT6A, Homo sapiens, UniProt Q92794, residues 85-181)
Technique: protein binding microarray
Molecule type: double-stranded DNA, one strand shown
Matrix: in vitro
Concentration: not given
Setting: 8-mer, flanks averaged, mean of 2 arrays, mostly near background
Baseline: not given
Direction: higher = stronger binding
Target sequence (chain): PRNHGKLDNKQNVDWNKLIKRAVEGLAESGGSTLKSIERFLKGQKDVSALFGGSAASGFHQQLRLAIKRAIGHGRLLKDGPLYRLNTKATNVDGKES
Oligonucleotide	E-score
AGTTGGAG	0.0783
AGAATACC	0.0507
CGGGAAGA	-0.0469
GTATTACA	-0.105
GAACCTCA	-0.0382
ATTAGGTA	-0.0118
GATGTTAC	-0.0334
ATATGTGG	-0.0684
AACTCGAT	-0.0168
CGCATCAG	0.174
TCAGATAA	0.0253
TAGCGGGA	0.0374
ACCATAAC	0.022
CCGCCTCA	0.203
CTAGTAGC	-0.00364
CTAGCAAG	-0.136

Study 3
Target: CCND2, cyclin fold, Cln2 fusion (human)
Technique: yeast growth competition, sequencing
Matrix: yeast
Setting: weak parent motif
Baseline: not given
Direction: higher = stronger binding
Starting sequence: CDKN1B docking peptide (human); PSACRNLFGPVDH
Variant	normalised enrichment score
PSACRNLFGRVDH [P10R]	0.273
MSACRNLFGPVDH [P1M]	0.394
PSACRNLFAPVDH [G9A]	0.228
PSACRNLLGPVDH [F8L]	0.1
PSACRNLFGPVLH [D12L]	0.113
PSAERNLFGPVDH [C4E]	0.184
PSACRKLFGPVDH [N6K]	0.386
PSACRNLFGPKDH [V11K]	0.049
PSACRNLFSPVDH [G9S]	0.103
PSACRNLFGDVDH [P10D]	0.314
PSACRNLHGPVDH [F8H]	0.183
PSACRNLFGPVDT [H13T]	0.122
PSATRNLFGPVDH [C4T]	0.0349
PSASRNLFGPVDH [C4S]	0.179
PSACRNLFFPVDH [G9F]	0.147
PSACKNLLGPVDH [R5K F8L]	0.122
PSACRNLNGPVDH [F8N]	0.204
PSACRNLFNPVDH [G9N]	0.296
PSACRNLVGPVDH [F8V]	-0.412
PSACRNLFGPYDH [V11Y]	0.135
LSACRNLFGPVDH [P1L]	0.302
PSSCRNLFGPVDH [A3S]	0.264
PSACRNLFGPVDM [H13M]	0.0494

Study 4
Target: RING finger protein unkempt homolog, zinc fingers 1-6, GST-SBP tag (UNK, Homo sapiens, UniProt Q9C0B0, residues 30-357)
UniProt Q9C0B0, sequence (30-357, looked up): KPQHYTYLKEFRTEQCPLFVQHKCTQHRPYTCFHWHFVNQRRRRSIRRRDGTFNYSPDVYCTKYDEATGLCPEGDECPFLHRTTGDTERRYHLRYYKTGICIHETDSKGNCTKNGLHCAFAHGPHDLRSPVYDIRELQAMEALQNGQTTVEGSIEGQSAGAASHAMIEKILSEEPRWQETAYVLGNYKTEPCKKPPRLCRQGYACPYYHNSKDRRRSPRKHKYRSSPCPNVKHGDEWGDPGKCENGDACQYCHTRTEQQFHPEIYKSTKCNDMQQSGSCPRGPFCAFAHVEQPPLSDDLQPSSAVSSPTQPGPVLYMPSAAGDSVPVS
Technique: RNA Bind-n-Seq
Molecule type: RNA
Matrix: in vitro
Concentration: not given
Setting: RNA with constant flanks, human-mouse chimeric sites, ends assumed
Baseline: input RNA pool
Direction: higher = stronger binding
Oligonucleotide	bound/input enrichment
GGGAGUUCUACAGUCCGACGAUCAUGGAACAUUUUGAUGCGUCACUCAGUACCUAUUUCAAGGCCUUCCUGGGCCCCCGAGAUACAAGAGUCAAAGGAUGGUUCCUCCUGGACAAUUACAUCCCUACGUUUGUCUGUUCUGUUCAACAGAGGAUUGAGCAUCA	0.142 ratio
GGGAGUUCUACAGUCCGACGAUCGUUGCCAGCUUCCGGUUCCGUUGGGCUCGGUUCUCUCCUGAGCUACGGUCCCUGGCACUCUCAAUCCGCCAUCCAACAAACAUGGAUCAGGUAAUGCUGCAGUUUGUGCCCAGCCGGCAGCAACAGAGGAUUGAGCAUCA	0.23 ratio
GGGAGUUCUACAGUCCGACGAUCGCUCCUCCCCGCUCUGCAGCCUGGGGACACUGGGCUGGGACCAGAAUCUUAUUUUUUUUUAAAACUCUCAGUGUAACUGUAUCCCGUGACAUUUCAUUUUUUUUAAAAGAAAAAAACUUUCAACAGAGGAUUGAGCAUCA	0.547 ratio
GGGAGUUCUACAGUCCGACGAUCAAUUUCCUGUCAUACUUUUUAGACAUUCACAUCAGACUUACAGAGCACCUGGCCACAUUCUAGGUUUGUGUUAUUUCUCAGCUAUGGGGGUAUGAUUAUGAGAACACUGGCAGCCAGAUGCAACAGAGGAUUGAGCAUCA	1.4 ratio
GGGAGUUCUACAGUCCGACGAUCUUCAAAGAAAAGGGCAGCUGUGUCAUUUCAUAAGUAACUCUGGGGGAGGGAAAUUCUGUUCUUUUGUUUAAUUUUCCCCCAGAUAAAACCAACAUGCGUGUUGAAGAACUGAGAAAAAAUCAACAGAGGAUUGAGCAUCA	0.239 ratio
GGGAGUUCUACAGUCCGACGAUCGGAUCUUUGGGACUGUUUUACUUAAUUGGUCAUUGAUAGCUUAACAAACAUGGAGAUAAGAUUAGAAAUCUUGACAUCAACAGGUAUUAAGCAGAAAAAACCAUGGCCACGUGUCUCCUGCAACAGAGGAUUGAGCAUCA	0.17 ratio
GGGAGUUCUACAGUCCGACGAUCGUUCGGCUCUGGGAUCAUGCCACAAUGACAGAAGUGAAAUCUCUGAAUUUUAAUAUGUCUGUUAGCAGCAUGGAGUAUAUUCCUGAAGGAGAGAUUUUGGUUAUAACUUAUGGACGAUCUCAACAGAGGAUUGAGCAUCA	0.425 ratio
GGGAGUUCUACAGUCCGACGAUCAUCAAAUACUUUGGGGACAUCAUUAGUGUGGGACAGAGACUGUUGCAAGGAGCUCGGAUCUUAGGGAUUCCUGUUAUUGUAACAGAACAAUACCCCAAAGGACUUGGCAGCACCGUUCAACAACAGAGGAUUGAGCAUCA	0.141 ratio
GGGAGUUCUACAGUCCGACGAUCGUUCGACUUUGGGAUCAUGCCACAAUGACAGAAGUGAAAUCUCUGAAUUUUAAUAUGUCUGUUAGCAGCAUGGAGUAUAUUCCUGAAGGAGAGAUUUUGGUUAUUACUUAUGGACGAUCUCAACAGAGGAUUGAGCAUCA	0.188 ratio
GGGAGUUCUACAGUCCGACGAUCGCUCCUCUUCCGCACUCAGCCUGGGGACACUGGGCUGGGACCAGAAUCCAGCUUUCUUUUAAAACUCUCAGUGUAACUGUAUCCCGUUUUUUUCUUUUUUUUUUAAAUAGUGUAUUUUUUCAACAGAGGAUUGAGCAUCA	16.3 ratio
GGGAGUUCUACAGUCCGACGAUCAAAGAAAAUGGAGAAGUAAAGAUUUUACUGAAAAGUGGGAAGGAGAAACCAAAAACAAAUAUAGAAGACUUACAAAUUAAAAAAGUAAAGAAGAAAAAGAAAAAGAAACACAAAGAGAAUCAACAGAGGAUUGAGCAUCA	14.5 ratio

Excerpt of the above (study 1):
Oligonucleotide	RBNS enrichment (R)
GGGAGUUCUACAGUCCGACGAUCAUUGUGCCCUUGGAAUUUAAUACAAGUGCCUAACCCACAGUAGGGUUGAUUGAUUCACUGAUUAGUUUUACUGCCAUGUGCCUAUAACUAUAGGUUAUUCUCUUUCCUUUUGGAAUUCUCGGGUGCCAA	0.292
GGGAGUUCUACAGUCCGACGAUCUUCAUGGUUGAAACUCAACUUAGGGAAAGGGUUCCAAUGUAUUAAGCAAUGGGCUGCUUCUCCCCAAUCCUCCCUAACAAUUCGUUGUGUGGACUUCUCAUCUAAAAGGUUGGAAUUCUCGGGUGCCAA	0.274
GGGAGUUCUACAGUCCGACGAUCGAACUCAGAAGGAUGGCAUUUUUUGCAAGUUAAAGAAAAUCAGGAUCUGAGUUAUUUUGCUAAACUUGGGGGAGGAGGAACAAAUAAAUGGAGUCUUUAUUGUGUAUCAUUGGAAUUCUCGGGUGCCAA	1.95
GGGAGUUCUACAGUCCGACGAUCCACACUGCAGCUGAGGCCCCAGGUGGCAGCCAUGGAUCAUGUAGACUUCCAGAUGGUCUCCCGAACCGCCUGGCUCUGCCGGCGCCCUCCUCACGUCAGGAGCAAGCAGCUGGAAUUCUCGGGUGCCAA	0.217
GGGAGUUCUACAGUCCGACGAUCAGAACUAGUAGACCCUUUUUCCCAGGCACUGACCCCCCACCUUUGUCUGUGUUGUGCCCAAGUGCCUGCGCCACCCCCACCCUCCUGCUGCGCUGACCGCUGCAUGGUGUUGGAAUUCUCGGGUGCCAA	0.537
